Earlier results as cited in several papers.
Compare with care: the assays were run in different laboratories. Values joined by “and” are separate records of one study, mostly repeats; a detail may differ. ± marks the error that the study gave.
Tmem97: Sigma intracellular receptor 2 (Tmem97, Rattus norvegicus, UniProt Q5U3Y7)
Chain of UniProt Q5U3Y7 (whole entry, looked up): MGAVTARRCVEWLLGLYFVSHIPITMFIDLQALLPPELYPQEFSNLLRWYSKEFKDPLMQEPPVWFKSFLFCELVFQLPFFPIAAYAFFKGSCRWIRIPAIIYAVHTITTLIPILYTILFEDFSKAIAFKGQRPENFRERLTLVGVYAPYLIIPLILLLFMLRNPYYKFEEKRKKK
gag-pol protease: Gag-Pol polyprotein, protease (gag-pol, Human immunodeficiency virus type 1 group M subtype B, UniProt P04585)
EGFR: Epidermal growth factor receptor (EGFR, Homo sapiens, UniProt P00533)
ribH: 6,7-dimethyl-8-ribityllumazine synthase (ribH, Mycobacterium tuberculosis, UniProt P9WHE9)
Chain of UniProt P9WHE9 (whole entry, looked up): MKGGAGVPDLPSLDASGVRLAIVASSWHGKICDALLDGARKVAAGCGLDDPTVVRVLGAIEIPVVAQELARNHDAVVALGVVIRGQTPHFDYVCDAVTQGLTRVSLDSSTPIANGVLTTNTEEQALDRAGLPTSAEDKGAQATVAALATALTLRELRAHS
CA12: Carbonic anhydrase 12 (CA12, Homo sapiens, UniProt O43570)
Chain of UniProt O43570 (whole entry, looked up): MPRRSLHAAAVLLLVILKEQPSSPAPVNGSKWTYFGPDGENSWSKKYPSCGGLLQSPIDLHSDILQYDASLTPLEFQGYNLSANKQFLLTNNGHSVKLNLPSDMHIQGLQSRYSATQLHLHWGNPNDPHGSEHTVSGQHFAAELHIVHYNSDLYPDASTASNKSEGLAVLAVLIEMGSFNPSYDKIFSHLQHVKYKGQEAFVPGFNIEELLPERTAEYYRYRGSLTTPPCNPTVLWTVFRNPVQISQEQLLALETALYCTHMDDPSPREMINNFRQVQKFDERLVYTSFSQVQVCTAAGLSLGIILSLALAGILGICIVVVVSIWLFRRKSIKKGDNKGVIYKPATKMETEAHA
Chain of UniProt P04746 (whole entry, looked up): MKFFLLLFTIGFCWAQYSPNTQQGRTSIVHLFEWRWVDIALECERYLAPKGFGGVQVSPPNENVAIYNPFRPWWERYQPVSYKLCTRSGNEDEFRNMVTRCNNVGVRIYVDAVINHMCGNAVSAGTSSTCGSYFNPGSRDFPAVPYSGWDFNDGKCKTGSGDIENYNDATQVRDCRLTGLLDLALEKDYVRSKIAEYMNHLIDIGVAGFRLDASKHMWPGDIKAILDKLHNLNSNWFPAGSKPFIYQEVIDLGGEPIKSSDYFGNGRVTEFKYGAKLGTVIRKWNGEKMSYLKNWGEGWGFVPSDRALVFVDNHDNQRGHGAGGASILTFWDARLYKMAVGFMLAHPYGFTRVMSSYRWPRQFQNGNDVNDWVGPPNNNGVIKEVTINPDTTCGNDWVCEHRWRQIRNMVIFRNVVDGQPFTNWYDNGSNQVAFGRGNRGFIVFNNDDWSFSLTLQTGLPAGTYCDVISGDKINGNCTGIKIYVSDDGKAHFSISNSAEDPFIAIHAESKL
Chain of UniProt Q99720 (whole entry, looked up): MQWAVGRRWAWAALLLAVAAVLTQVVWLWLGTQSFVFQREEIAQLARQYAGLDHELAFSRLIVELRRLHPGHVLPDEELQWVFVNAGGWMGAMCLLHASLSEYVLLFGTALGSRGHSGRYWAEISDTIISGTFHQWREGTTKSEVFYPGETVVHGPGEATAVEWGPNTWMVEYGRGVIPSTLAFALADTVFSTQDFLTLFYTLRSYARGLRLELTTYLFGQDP
Chain of UniProt P07339 (whole entry, looked up): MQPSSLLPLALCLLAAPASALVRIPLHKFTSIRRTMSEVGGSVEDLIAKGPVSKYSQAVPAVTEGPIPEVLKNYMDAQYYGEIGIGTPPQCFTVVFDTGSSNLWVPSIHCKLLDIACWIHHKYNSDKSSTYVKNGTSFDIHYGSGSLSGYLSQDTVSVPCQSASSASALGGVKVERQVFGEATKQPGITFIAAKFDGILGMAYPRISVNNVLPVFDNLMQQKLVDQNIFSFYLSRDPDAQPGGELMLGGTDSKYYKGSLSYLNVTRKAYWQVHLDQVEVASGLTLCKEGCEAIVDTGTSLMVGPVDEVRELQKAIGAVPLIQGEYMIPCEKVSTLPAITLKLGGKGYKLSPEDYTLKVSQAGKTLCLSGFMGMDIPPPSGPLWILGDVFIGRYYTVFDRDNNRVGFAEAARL
Chain of UniProt Q16819 (whole entry, looked up): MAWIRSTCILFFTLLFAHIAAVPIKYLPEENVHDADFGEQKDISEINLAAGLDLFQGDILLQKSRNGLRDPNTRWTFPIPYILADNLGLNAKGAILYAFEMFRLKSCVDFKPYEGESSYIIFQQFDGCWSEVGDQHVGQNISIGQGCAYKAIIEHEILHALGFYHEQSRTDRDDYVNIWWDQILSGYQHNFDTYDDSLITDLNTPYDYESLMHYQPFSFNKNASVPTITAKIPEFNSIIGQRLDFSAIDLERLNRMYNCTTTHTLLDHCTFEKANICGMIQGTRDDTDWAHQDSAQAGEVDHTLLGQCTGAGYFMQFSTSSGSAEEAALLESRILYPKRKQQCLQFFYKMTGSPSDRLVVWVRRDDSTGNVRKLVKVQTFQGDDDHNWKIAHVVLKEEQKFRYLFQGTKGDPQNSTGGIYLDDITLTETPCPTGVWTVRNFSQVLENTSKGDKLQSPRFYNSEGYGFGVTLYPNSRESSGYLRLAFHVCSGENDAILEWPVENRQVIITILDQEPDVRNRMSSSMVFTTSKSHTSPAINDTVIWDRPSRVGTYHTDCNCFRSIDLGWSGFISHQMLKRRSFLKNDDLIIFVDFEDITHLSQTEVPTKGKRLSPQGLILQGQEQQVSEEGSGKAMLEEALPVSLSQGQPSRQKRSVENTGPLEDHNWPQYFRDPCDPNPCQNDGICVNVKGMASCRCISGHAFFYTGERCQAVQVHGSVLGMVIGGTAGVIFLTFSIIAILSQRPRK
Chain of UniProt P00915 (whole entry, looked up): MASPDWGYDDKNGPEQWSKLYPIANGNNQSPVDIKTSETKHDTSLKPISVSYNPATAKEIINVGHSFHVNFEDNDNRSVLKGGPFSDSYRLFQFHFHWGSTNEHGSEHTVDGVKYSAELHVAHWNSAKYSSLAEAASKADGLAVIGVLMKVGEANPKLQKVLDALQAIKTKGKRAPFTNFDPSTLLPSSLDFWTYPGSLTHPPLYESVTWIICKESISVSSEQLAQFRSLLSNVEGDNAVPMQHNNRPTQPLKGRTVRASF
Chain of UniProt P21917 (whole entry, looked up): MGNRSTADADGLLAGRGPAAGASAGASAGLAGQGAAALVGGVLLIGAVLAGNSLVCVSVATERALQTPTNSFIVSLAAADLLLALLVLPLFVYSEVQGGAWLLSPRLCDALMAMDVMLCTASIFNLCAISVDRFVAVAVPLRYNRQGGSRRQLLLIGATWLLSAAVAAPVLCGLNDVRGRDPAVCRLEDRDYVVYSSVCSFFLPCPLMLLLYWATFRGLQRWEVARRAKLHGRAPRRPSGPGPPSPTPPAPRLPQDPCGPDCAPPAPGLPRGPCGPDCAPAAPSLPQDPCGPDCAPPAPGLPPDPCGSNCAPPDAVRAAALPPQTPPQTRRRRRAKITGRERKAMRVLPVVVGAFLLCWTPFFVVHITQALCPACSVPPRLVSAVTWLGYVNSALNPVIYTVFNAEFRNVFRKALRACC

Structure (SMILES) = COc1cc2c(cc1OC)CN(CCCCn1ccc3c(OCCF)cccc31)CC2; target = Tmem97; assay = binding; Ki = 2.4 ± 0.58 nM
Structure (SMILES) = NS(=O)(=O)c1ccc(Nc2nc(CC(=O)c3ccccc3)ns2)cc1; target = human carbonic anhydrase XII; assay = inhibitor; Ki = 34.2 nM
Structure (SMILES) = CN(Cc1c[nH]c2c(=O)[nH]cnc12)[C@H](CO)CCP(=O)(O)O; target = Plasmodium falciparum HGXPRT; assay = inhibitor; Ki = 110 ± 30 nM
Structure (SMILES) = CC(C)(O/N=C(\C(=O)NCB(O)O)c1csc(N)n1)C(=O)O; target = ADC-7 beta-lactamase; assay = inhibitor; Ki = 310 nM
Structure (SMILES) = COC(=O)NC(C(=O)NN(Cc1ccc(Br)cc1)CC(O)(Cc1ccccc1)C(=O)NC1CCOC1)C(C)(C)C (stereo not shown); target = gag-pol protease; assay = inhibitor; Ki = 110 nM
Structure (SMILES) = O=C(/C=C/c1ccsc1)c1cc2ccccc2oc1=O; target = adenosine A1 receptor (human); Ki = > 30000 nM
Structure (SMILES) = O=c1[nH]cnc2c([C@@H]3N[C@H](COP(=O)(O)O)[C@@H](O)[C@H]3O)c[nH]c12; target = Trypanosoma cruzi HGPRT; assay = inhibitor; Ki = 170 ± 30 nM
Structure (SMILES) = C[C@@H]1O[C@@H](O[C@@H]2CO[C@@H](Oc3c(O)cc(-c4oc5cc(O)cc(O)c5c(=O)c4O[C@@H]4O[C@@H](C)[C@H](O)[C@@H](O)[C@H]4O[C@@H]4O[C@H](COC(=O)/C=C/c5ccc(O)c(O)c5)[C@@H](O)[C@H](O)[C@H]4O[C@@H]4O[C@H](CO)[C@@H](O)[C@H](O)[C@H]4O)cc3O)[C@H](O)[C@H]2O)[C@H](O)[C@H](O)[C@H]1O; target = Pancreatic alpha-amylase (Homo sapiens, UniProt P04746); Ki = 8 nM
Structure (SMILES) = COCCOc1cc2ncnc(Nc3cccc(-c4cn(CC(=O)Nc5cccc(S(N)(=O)=O)c5)nn4)c3)c2cc1OCCOC; target = Helicobacter pylori alpha-carbonic anhydrase; assay = inhibitor, stopped-flow CO2 hydration; Ki = 71.6 nM
Structure (SMILES) = CCn1nc(Cc2ccccc2)cc1C1CCN(C[C@H]2C[C@H](N(C)C(C(=O)O)C(C)C)C[C@@H]2c2cccc(F)c2)CC1 (stereo partly shown); target = C-C chemokine receptor type 5 (Macaca mulatta, UniProt P61813); assay = biochemical; Ki = 1 nM
Structure (SMILES) = CC(C)C(=O)Nc1c(NC[C@H](O)[C@H](O)[C@H](O)CO)[nH]c(=O)[nH]c1=O; target = Bacillus subtilis lumazine synthase; assay = inhibitor; system = recombinant β60 capsid; setting = pH 7.0, Tris·HCl buffer, with: 2 constant, 1 varied; Ki = 95000 ± 36000 nM
Structure (SMILES) = Nc1nc2c([C@@H]3N[C@H](COP(=O)(O)O)[C@@H](O)[C@H]3O)c[nH]c2c(=O)[nH]1; target = Plasmodium falciparum HGXPRT; assay = inhibitor; Ki = 14 ± 2 nM
Structure (SMILES) = O=C(CN(Cc1ccccc1)Cc1ccccc1)NO; target = Meprin A subunit alpha (MEP1A, Homo sapiens, UniProt Q16819); assay = inhibitor; Ki = 7870 nM
Structure (SMILES) = C=CC(=O)N1CCC[C@@H](n2nc(-c3ccc4ccccc4c3)c3c(N)ncnc32)C1; target = EGFR; Ki = 15 ± 3.2 nM
Structure (SMILES) = O=c1[nH]c(SC[C@H](O)[C@H](O)[C@H](O)CO)c([N+](=O)[O-])c(=O)[nH]1; target = Bacillus subtilis lumazine synthase; assay = inhibitor; system = recombinant β60 capsid; setting = pH 7.0, Tris·HCl buffer, with: 2 constant, 1 varied; Ki = 26000 ± 3000 nM
Structure (SMILES) = O=C(O)/C(S)=C/c1c[nH]c2ccc(F)cc12; target = µ-calpain; Ki = 260 nM
Structure (SMILES) = O=C(c1ccc(F)cc1)C1CCN(C2Cc3c(cccc3OCCF)CC2O)CC1 (single isomer, unassigned; (-)); target = sigma-1 receptor; assay = binding; Ki = > 10000 nM
Structure (SMILES) = COc1cc2c(cc1OC)[C@@H]1C[C@@H](O)[C@@H](CC(C)C)CN1CC2; target = dopamine D2 receptor; assay = binding; Ki = 0.017 µg/mL
Structure (SMILES) = CC[C@H](C)[C@H](NC(=O)[C@H](CC(=O)O)NC(=O)[C@H](CC(C)C)NC(=O)[C@H](CC(C)C)NC(=O)[C@H](CCCCN)NC(=O)[C@H](CCCNC(=N)N)NC(=O)[C@H](CC(N)=O)NC(=O)[C@H](CO)NC(=O)[C@H](Cc1c[nH]cn1)NC(=O)[C@H](C)NC(=O)[C@H](CCC(N)=O)NC(=O)[C@H](CCC(N)=O)NC(=O)[C@H](C)NC(=O)[C@H](CC(C)C)NC(=O)[C@H](CCC(N)=O)NC(=O)[C@H](CC(=O)O)NC(=O)[C@H](C)NC(=O)[C@H](CCCCN)NC(=O)[C@@H](NC(=O)[C@H](CCSC)NC(=O)[C@H](CCC(=O)O)NC(=O)[C@H](CC(C)C)NC(=O)[C@@H](NC(=O)[C@H](CCC(=O)O)NC(=O)[C@H](CCCNC(=N)N)NC(=O)[C@H](CC(C)C)NC(=O)[C@H](CC(C)C)NC(=O)[C@H](Cc1c[nH]cn1)NC(=O)[C@H](Cc1ccccc1)NC(=O)[C@@H](NC(=O)[C@H](CC(C)C)NC(=O)[C@H](CC(=O)O)NC(=O)[C@H](CC(C)C)NC(=O)[C@H](CO)NC(=O)[C@@H](NC(=O)[C@@H]1CCCN1C(=O)[C@@H]1CCCN1C(=O)[C@H](CCC(=O)O)NC(=O)[C@H](CCC(N)=O)NC(=O)[C@@H](N)CO)[C@@H](C)CC)[C@@H](C)O)C(C)C)[C@@H](C)O)C(=O)N[C@@H](C)C(N)=O; target = CRF1 receptor; Ki = ~2 nM
Structure (SMILES) = CN1CCC(n2nc(-c3c(-c4ccccc4)nn4ccccc34)ccc2=O)CC1; target = adenosine A1 receptor (human); Ki = 2.9 nM
Structure (SMILES) = Nc1nc(N)c2c(n1)[nH]c1ccc(O)cc12; target = Pteridine reductase (PTR1, Trypanosoma brucei brucei, UniProt O76290); Ki = 83000 nM
Structure (SMILES) = NS(=O)(=O)c1ccc(CCn2c(S)nc3ccccc3c2=O)cc1; target = carbonic anhydrase II, human; Ki = 0.62 nM
Structure (SMILES) = CCc1c(Cl)cccc1N1CCN(C[C@H](F)CCNC(=O)c2cc3ccccc3[nH]2)CC1; target = dopamine D3 receptor; assay = binding; Ki = 0.37 ± 0.06 nM
Structure (SMILES) = CCCCOC(=O)NS(=O)(=O)c1sc(CC(C)C)cc1-c1cccc(CN(CC)C(C)=O)c1; target = angiotensin II type 2 receptor, pig; system = uterus membranes; Ki = 29 nM
Structure (SMILES) = CSc1nc(N)c2ncn([C@H]3[C@H](O)[C@H](O)[C@]4(COP(=O)(O)OP(=O)(O)O)C[C@H]34)c2n1; target = P2Y1 receptor; Ki = 0.4 nM
Structure (SMILES) = CC(C)[C@H](NC(=O)[C@@H]1CCCN1C(=O)[C@@H](N)CCCCN)C(=O)N[C@@H](CCC(=O)O)C(=O)N[C@H](CN[C@@H](CCCNC(=N)N)C(=O)N[C@@H](CCC(N)=O)C(=O)N[C@H](C(=O)O)[C@@H](C)O)Cc1ccccc1; target = Cathepsin D (CTSD, Homo sapiens, UniProt P07339); assay = enzyme activity, inhibitor; Ki = 30 ± 2 nM
Structure (SMILES) = C/C(=N\NC(=O)CSc1nc2ccccc2c(=O)n1CCc1ccc(S(N)(=O)=O)cc1)c1ccccc1; target = Carbonic anhydrase 1 (CA1, Homo sapiens, UniProt P00915); assay = enzyme activity, inhibitor; Ki = 124 nM
Structure (SMILES) = O=c1[nH]c(NC[C@H](O)[C@H](O)[C@H](O)CO)c([N+](=O)[O-])c(=O)[nH]1; target = ribH; assay = inhibitor; setting = pH 7.0; Ki = 13000 ± 1000 nM
Structure (SMILES) = COc1cc2c(cc1OC)CN(CCCCn1ccc3ccc(OCCF)cc31)C2; target = Sigma non-opioid intracellular receptor 1 (SIGMAR1, Homo sapiens, UniProt Q99720); assay = binding; Ki = 376 ± 351 nM
Structure (SMILES) = O=c1ncccn1[C@H]1C[C@H](O)[C@@H](CO)O1; target = cytidine deaminase; assay = inhibitor; Ki = 2900 nM
Structure (SMILES) = COc1ccccc1N1CCN(CC(O)CCNC(=O)c2ccc(-c3ccccn3)cc2)CC1 (stereo not shown); target = D(4) dopamine receptor (DRD4, Homo sapiens, UniProt P21917); Ki = 4470 ± 993 nM
Structure (SMILES) = C=CC(=O)N1CCC[C@@H](n2nc(-c3cccc4ccccc34)c3c(N)ncnc32)C1; target = EGFR; Ki = 47 ± 5.8 nM
Structure (SMILES) = c1cc2c(cc1OCCCN1CCCCC1)CN1CCCC1=N2; target = histamine H3 receptor (human); assay = binding; Ki = 76.2 nM
Structure (SMILES) = COCCOc1cc2ncnc(Nc3cccc(-c4cn(Cc5ccc(C(=O)Nc6ccc(S(N)(=O)=O)cc6)cc5)nn4)c3)c2cc1OCCOC; target = Helicobacter pylori alpha-carbonic anhydrase; assay = inhibitor, stopped-flow CO2 hydration; Ki = 48 nM
Structure (SMILES) = O=C(/C=C/Nc1ccccc1)c1cc2ccccc2oc1=O; target = CA12; assay = inhibitor; Ki = 85.7 nM
Structure (SMILES) = CCOC(=O)C(=O)Nc1c(NC[C@H](O)[C@H](O)[C@H](O)CO)[nH]c(=O)[nH]c1=O; target = ribH; assay = inhibitor; setting = pH 7.0; Ki = 4000 ± 1700 nM
Structure (SMILES) = Nc1nc2c(CN[C@H](CO)CCP(=O)(O)O)c[nH]c2c(=O)[nH]1; target = Trypanosoma cruzi HGPRT; assay = inhibitor; Ki = ~10 nM and 6 nM
Structure (SMILES) = Nc1c(SC[C@H](O)[C@H](O)[C@H](O)CO)[nH]c(=O)[nH]c1=O; target = Bacillus subtilis lumazine synthase; assay = inhibitor; system = recombinant β60 capsid; setting = pH 7.0, Tris·HCl buffer, with: 2 constant, 1 varied; Ki = 2600 ± 200 nM
Structure (SMILES) = O=c1[nH]cnc2c(CN[C@@H](CO)CCP(=O)(O)O)c[nH]c12; target = Plasmodium falciparum HGXPRT; assay = inhibitor; Ki = 23 ± 2 nM
Structure (SMILES) = NS(=O)(=O)c1ccc(CCn2c(SCC(=O)N/N=C/c3ccccc3)nc3ccccc3c2=O)cc1; target = CA12; assay = enzyme activity, inhibitor; Ki = 38.4 nM
Structure (SMILES) = COc1cc2c(cc1OC)CN(CCCCn1ccc3cc(OCCF)ccc31)C2; target = Tmem97; assay = binding; Ki = 3.27 ± 0.19 nM
Structure (SMILES) = CCC(=O)NCCNC(=O)N=C(N)NCCC[C@@H](NC(=O)C(c1ccccc1)c1ccccc1)C(=O)NCc1ccc(O)cc1; target = NPFF1R; assay = binding; Ki = 1000 nM
Structure (SMILES) = C[C@@H]1COCCN1c1nc(-c2cnc(N)nc2)nc2c1C[C@@H]1COCCN21; target = Serine/threonine-protein kinase mTOR (MTOR, Homo sapiens, UniProt P42345); assay = binding, TR-FRET displacement; Ki = 5.1 ± 0.4 nM
Structure (SMILES) = O=c1[nH]cnc2c(CNC(CO)COP(=O)(O)O)c[nH]c12 (racemic); target = Plasmodium falciparum HGXPRT; assay = inhibitor; Ki = 15 ± 4 nM
Structure (SMILES) = NS(=O)(=O)c1ccc(CCNC(=O)CSc2nc3ccc(I)cc3c(=O)n2Cc2ccccc2)cc1; target = carbonic anhydrase IX, human; Ki = 16.4 to 24.2 nM
Structure (SMILES) = CCn1cc(-c2cc(Cn3ccnc3)cc3c2CCN([C@H](c2cc(OC)ccn2)C2CC2)C3=O)c(C(F)(F)F)n1; target = WD repeat-containing protein 5 (WDR5, Homo sapiens, UniProt P61964); assay = TR-FRET; Ki = < 0.02 nM
Structure (SMILES) = COc1cc2nc(SC(C)C(=O)NCCc3ccc(S(N)(=O)=O)cc3)n(Cc3ccccc3)c(=O)c2cc1OC (stereo not shown); target = carbonic anhydrase XII, human; Ki = 5.2 to 8.9 nM
Structure (SMILES) = COCCOc1cc2ncnc(Nc3cccc(-c4cn(-c5ccc(S(N)(=O)=O)cc5)nn4)c3)c2cc1OCCOC; target = Helicobacter pylori alpha-carbonic anhydrase; assay = inhibitor, stopped-flow CO2 hydration; Ki = 63.3 nM
Structure (SMILES) = CC(C)(C)[C@H](NC(=O)[C@H](CCONC(=N)N)NC(=O)Cc1ccc(CNC(=N)N)cc1)C(=O)N[C@@H](CCONC(=N)N)C(=O)NCc1ccc(C(=N)N)cc1; target = furin; Ki = 0.0101 nM
Structure (SMILES) = C=CCC(=N)NCCC[C@H](N)C(=O)O; target = mouse iNOS; Ki = 60000 nM
Structure (SMILES) = COCCOc1cc2ncnc(Nc3cccc(-c4cn(-c5cccc(S(N)(=O)=O)c5)nn4)c3)c2cc1OCCOC; target = Helicobacter pylori alpha-carbonic anhydrase; assay = inhibitor, stopped-flow CO2 hydration; Ki = 70.1 nM
Structure (SMILES) = COC(=O)NC(C(=O)NN(Cc1ccc(Br)cc1)CC(O)(Cc1ccccc1)C(=O)Nc1cccc(O)c1C)C(C)(C)C (stereo not shown); target = gag-pol protease; assay = inhibitor; Ki = 480 nM
